Measurements of several laboratories.
Each line is one published result; not all experiments were run side by side. ± gives the spread as reported.

`COc1ccccc1-c1c[nH]c2ncc(-c3cncc(C(=O)N(C)C)c3)cc12` gave a GI50 of 108 ± 7 nM (Ba/F3 BCR-ABL T315I; cell proliferation; 72 h).
`[Cl-].[Cl-].[Ru+2].c1ccc(-c2ccccn2)nc1.c1ccc(-c2ccccn2)nc1.c1ccc2cc3nc4c5cccnc5c5ncccc5c4nc3cc2c1` has a GI50 of 195 nM (SK-MEL-28; sulforhodamine B; normoxia, together with: red light 633 nm).
For `CCN(C(=O)c1cc(F)ccc1Oc1nncnc1N1CCC2(C1)CN([C@H](CCCN(C)CCOC)C(C)C)C2)C(C)C`, the GI50 was > 10000 nM (WSU-NHL; cell growth or viability; 7 days).
For `O=C(C[Se]C(=O)c1ccccc1Nc1ccccc1)Nc1cccc(C(F)(F)F)c1`, the GI50 was 1710 nM (NCI60 NSCLC subpanel; NCI60 five-dose screen).
`O=C(Cc1ccc2ccccc2c1)N[C@H](Cc1ccccc1)C(=O)N[C@H](Cc1ccccc1)C(=O)N[C@H](Cc1ccc(OP(=O)(O)O)cc1)C(=O)O` has a GI50 of 572000 nM (HS5; cell growth or viability, MTT).
With `O=C(C[Se]C(=O)c1cc2ccccc2s1)Nc1cccc(C(F)(F)F)c1` the GI50 was 1560 nM (NCI60 NSCLC subpanel; NCI60 five-dose screen).
`COc1ccc(OC(C)=O)cc1-c1c[nH]c2ncc(-c3cncc(C(=O)N(C)C)c3)cc12` gave a GI50 of 139 ± 49 nM (Ba/F3 BCR-ABL T315I; cell proliferation; 72 h).
`CC(C)Cc1ccc(C(C)C(=O)[Se]CC(=O)Nc2cccc(C(F)(F)F)c2)cc1` (stereo not drawn) has a GI50 of 1780 nM (NCI60 NSCLC subpanel; NCI60 five-dose screen).
`COc1cc(O)ccc1-c1c[nH]c2ncc(-c3cncc(C(=O)N(C)C)c3)cc12` has a GI50 of 253 ± 51 nM (Ba/F3 BCR-ABL T315I; cell proliferation; 72 h).

A few entries again:
`COc1ccc(OC(C)=O)cc1-c1c[nH]c2ncc(-c3cncc(C(=O)N(C)C)c3)cc12` gave a GI50 of 139 ± 49 nM (Ba/F3 BCR-ABL T315I; cell proliferation; 72 h).
